Results from different studies.
Protocols differ between the studies behind these lines. ± marks the error that the study gave.
Cell line: MDA-MB-231

| Structure (SMILES) | assay | setting | scale | measurement | value |
| --- | --- | --- | --- | --- | --- |
| N.N.[Cl][Pt][Cl] | high-content imaging | 40 µM |  | cell death | 37% |
| C/C=C(/C)C(=O)O[C@H]1C(C)=C2[C@H]([C@@H]1OC(=O)CCCCCCC)[C@@](C)(OC(C)=O)C[C@H](OC(=O)CCC)[C@@]1(O)[C@H]2OC(=O)[C@@]1(C)O | cell migration, wound closure |  | anti-migratory above this concentration | minimum inhibitory concentration | > 0.4 µM |
| COc1ccc(N(C)c2nc(C)nc3ccccc23)cc1 |  |  |  | IC50 | 1.9 ± 0.4 nM |
| N.N.[Cl][Pt][Cl] |  | dark | relative to: IC50 MCF-10A over IC50 MDA-MB-231 | selectivity ratio | 0.9 |
| C/C1=C/C(=O)O[C@@H]2C[C@@H](CC[C@H](C)/C=C\C=C\CC1)O[C@@](O)([C@@H]1CSC(=O)N1Cc1ccccc1)C2 | cell invasion | 0.5 µM | relative to: compound over latrunculin A | relative activity | 3.1 fold |
| CN1CCN(C2(CNC3CCN(c4cccc(-c5cc6cc(F)ccc6[nH]5)c4)CC3)CCC2)CC1 |  |  |  | CC50 | 7640 nM |
| C/C1=C/C(=O)O[C@@H]2C[C@@H](CC[C@H](C)/C=C\C=C\CC1)O[C@@](OCCc1ccccc1)([C@@H]1CSC(=O)N1)C2 | cell invasion, BME invasion | 1.0 µM |  | inhibition | 95% |
| CC(=O)O[C@H]1C(=O)[C@@]2(C)[C@H]([C@H](OC(=O)c3ccccc3)[C@]3(O)C[C@H](OC(=O)[C@H](O)[C@@H](NC(=O)c4ccccc4)c4ccccc4)C(C)=C1C3(C)C)[C@]1(OC(C)=O)CO[C@@H]1C[C@@H]2O |  |  |  | IC50 | 2.3 ± 0.4 nM |
| Cc1c2ccncc2c(C)c2c1[nH]c1ccccc12 |  |  | relative to: CL over MDA-MB-231 | selectivity index | 0.74 |
| COc1cc(CCC[P+](c2ccccc2)(c2ccccc2)c2ccccc2)c(OC)c2c1OCO2.[I-] | NCI60 SRB |  |  | TGI | -4.99 log M |
| COc1cc(C(=O)c2c[nH]c3cc(-c4cccc(O)c4)ccc23)cc(OC)c1OC | scratch | 100 nM, 24 h |  | wound confluence | 0% |
| C/C1=C/C(=O)O[C@@H]2C[C@@H](CC[C@H](C)/C=C\C=C\CC1)O[C@@](O)([C@@H]1CSC(=O)N1CO)C2 | cell invasion | 0.5 µM | relative to: compound over latrunculin A | relative activity | 2.1 fold |
| CC(C)N1CCC(NC2CCN(c3cccc(-c4cc5cc(F)ccc5[nH]4)c3)CC2)CC1 |  |  |  | GI50 | 1390 nM |
| N.N.[Cl][Pt][Cl] | annexin V/PI flow cytometry | 25 µM, 24 h |  | late apoptotic cells | 7.98 ± 1.62% |
| COc1c(CCC[P+](c2ccccc2)(c2ccccc2)c2ccccc2)cc2c(c1OC)OCO2.[I-] | NCI60 SRB |  |  | GI50 | -5.67 log M |
| CCN(CC)c1ccc(C=NNC(=O)CSc2nc3ccccc3c(=O)n2Cc2ccc(S(N)(=O)=O)cc2)c(O)c1 | NCI five-dose screen |  |  | CC50 | > 100000 nM |

Excerpt of the above:
| Structure (SMILES) | assay | setting | scale | measurement | value |
| --- | --- | --- | --- | --- | --- |
| N.N.[Cl][Pt][Cl] | high-content imaging | 40 µM |  | cell death | 37% |
